Literature values that unrelated publications cite.
Compare with care: the assays were run in different laboratories. Several values in a cell are separate wells, animals, samples, runs or records.
B1: CCL1; sequence looked up; chain KSMQVPFSRCCFSFAEQEIPLRAILCYRNTSSICSNEGLIFKLKRGKEACALDTVGWVQRHRKMLRHCPSKRK
B2: erenumab; V domains shown; sequence looked up; VH QVQLVESGGGVVQPGRSLRLSCAASGFTFSSFGMHWVRQAPGKGLEWVAVISFDGSIKYSVDSVKGRFTISRDNSKNTLFLQMNSLRAEDTAVYYCARDRLNYYDSSGYYHYKYYGMAVWGQGTTVTVSS; VL QSVLTQPPSVSAAPGQKVTISCSGSSSNIGNNYVSWYQQLPGTAPKLLIYDNNKRPSGIPDRFSGSKSGTSTTLGITGLQTGDEADYYCGTWDSRLSAVVFGGGTKLTVL

For `B1 (CCL1)`, the EC50 was 6.6 nM and 3.4 nM (CCR8 W251Q mutant; IP accumulation, agonist).
`GVPMGSVIKKRRKRMAKKKHRKLLRKTRHQRRNKK` gave an MIC of 11 µM (Pseudomonas aeruginosa; peptide, ATCC 15692).
The half-life of `insulin degludec` is reported as 25.4 h.
For `insulin glargine`, “participants with hypoglycaemia” read 35.5% (human type 2 diabetes; double dose, 84 h monitoring).
With `IFFRRNKKMAVKVAINGFGRIGRLAFRQMFGRYIAKINPDNKKFKTMPSG` the MIC was 9 µM (Pseudomonas aeruginosa; peptide, ATCC 15692).
With `B2 (erenumab)` the hypertension incidence was 43% (antibody; concentration not given).
`human hepcidin` has a Tmax of about 2 h (healthy human, plasma; subcutaneous).
`semaglutide` has a nausea incidence of 44% (obese humans without diabetes; 2.4 mg, titrated over 16 weeks).
`pegcetacoplan` has an AUC(0-inf) of 3190 µg·h/mL (human; 45 mg single dose, arithmetic mean).
Under “half-life at steady state”, `insulin icodec` is recorded as 175 h (White patients with type 1 diabetes, serum; geometric mean).
For `dulaglutide`, the clearance was 0.107 L/h (human; 1.5 mg once weekly, steady state).
For `insulin degludec`, “absorption rate constant” read 0.0382 h⁻¹ (population PK model; fixed from prior estimate).
`teicoplanin` gave an unbound fraction of 5 to 10% (plasma).
For `albiglutide`, the tmax was 72 to 96 h (human; once weekly dosing).

Some of these lines once more:
For `dulaglutide`, the clearance was 0.107 L/h (human; 1.5 mg once weekly, steady state).
